Published values of several laboratories.
Every numbered part comes from another study and shows a few of its results, in no order. Changes are numbered by the printed parent chain.

Block 1 — method: RNA Bind-n-Seq; molecule type: RNA; matrix: in vitro; tested at: 365 nM; baseline: no-protein control; direction: higher = stronger binding; endpoint: RBNS enrichment (R)
Target: RNA binding protein fox-1 homolog 2, RRM domain, GST-SBP tag (RBFOX2, Homo sapiens, UniProt O43251-10, residues 100-194)
Setting: natural RNA segment, single round, ends assumed
GGGAGUUCUACAGUCCGACGAUCACACAAAAAAAAAGUCUAAUAAGAACUUUGGUACAGGAACUUUUUUGUAAUAUACAUGUAUGAAUUGUUCAUCGAGUUUUUAUAUUAAUUUUAAUUUGCUGCUAAGCAAAUGGAAUUCUCGGGUGCCAA: 0.665
GGGAGUUCUACAGUCCGACGAUCAUUGAGUAGUAUAAGUAGGAUGUUUUUAUUACUUGGUCAUAAUGAAAAUAAUUUGUAAAAUGUCAUUCGAAGGUUAAUGAUGAUUGUGAUGUUUAGGAAUGUUUGUCUCAUGGAAUUCUCGGGUGCCAA: 18.1
GGGAGUUCUACAGUCCGACGAUCCUGCCAGUGAAGGAAAAUGGUCAUCCUUAGUACACAGAAAAGUAUGUUUUCACUUUUCCUUGUUCGGGAAUGAUAAGGGCAAUGCUUUUUGAGGUUUAACUAACAAGGAUUGGAAUUCUCGGGUGCCAA: 0.444
GGGAGUUCUACAGUCCGACGAUCACCUGUGUAUAGAAGAAAGAAAGGGUCAGUGAUCGAGAAUCAGACACUCUCGUUCAGGAGGAGGCUUCUCGCCUGAAACAAUUGCACCCAACACUUUUGGGGAAGUCUCAUGGAAUUCUCGGGUGCCAA: 0.527

Block 2 — target: CCNB1, cyclin fold, Cln2 fusion (human); method: yeast growth competition, sequencing; matrix: yeast; setting: weak parent motif; baseline: not given; direction: higher = stronger binding; endpoint: normalised enrichment score
Starting sequence: CDC6 docking peptide (human); TLKGRRLVFDNQL
TLKGRRLVFCNQL [D10C]: 0.799
TQKGRRLVFDNQL [L2Q]: -0.0992
TLKGRCLVFDNQL [R6C]: 0.368
QLKGRRLVFDNQL [T1Q]: -0.294

Block 3 — method: competition protein-binding microarray; molecule type: double-stranded DNA, one strand shown; matrix: in vitro; tested at: 2 µM; added: Pho4 competitor, 0.05 µM; direction: higher = stronger binding; endpoint: fluorescence intensity; all sequences stand within: … GTCTTGATTCGCTTGACGCTGCTG
Target: Centromere-binding protein 1, full length, His-tagged (CBF1, Saccharomyces cerevisiae, UniProt P17106, residues 1-351)
Chain of UniProt P17106 (whole entry, looked up): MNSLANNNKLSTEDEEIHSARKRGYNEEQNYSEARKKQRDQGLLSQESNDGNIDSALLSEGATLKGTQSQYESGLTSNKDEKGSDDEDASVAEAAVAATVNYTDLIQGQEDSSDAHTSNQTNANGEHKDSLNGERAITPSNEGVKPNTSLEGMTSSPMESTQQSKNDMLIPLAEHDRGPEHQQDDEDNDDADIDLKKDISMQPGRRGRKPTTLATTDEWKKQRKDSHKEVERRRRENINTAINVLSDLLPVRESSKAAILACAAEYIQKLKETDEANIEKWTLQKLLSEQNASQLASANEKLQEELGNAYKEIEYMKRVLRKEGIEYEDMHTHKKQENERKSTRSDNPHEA
Setting: whole 60-bp probe, lowest competitor level
CGGGGTTAAGTTTGCCGAGTGGGTGGCTTGCAGCAG: 76.9 a.u.
CGCCGGAAGCGGTGCCTCGTGGCTTGGGATCTCTCC: 74.9 a.u.
TGCGCAACAACTTGCTTGGTGGGTGTATGTCTAGAA: 68 a.u.
CAACTGATATATATACACGTGAAGCAAAAAAGGCAT: 1860 a.u.
AACGACGAATCCTGTCACATGTCTTGCTTGGTCGCA: 1200 a.u.
TCCTTCTTTATCCCACTCATGACAATCTGCAATATA: 94.3 a.u.

Single results of other studies
PhoQ, residues 284 288 289 292 302 303 MLMVEA  fold induction (PhoP, residues 12 14 15 18 19 GQAIL (Escherichia coli, UniProt P23836); Sort-seq, item: YFP reporter; E. coli; PhoQ-PhoP variant library, added: 10 µM Mg2+; baseline: high Mg2+ state, higher = stronger signaling): 13.7

For quick reference, copied from above (block 3):
AACGACGAATCCTGTCACATGTCTTGCTTGGTCGCA: 1200 a.u.
TCCTTCTTTATCCCACTCATGACAATCTGCAATATA: 94.3 a.u.
